Experimental data pooled from the literature.
Lines come from different studies, so protocols differ. “And” joins repeats or separate records; there may be more than shown. ± gives the spread as reported.
Cell line: MCF7

Compound | test | setting | IC50
COc1cc(O)c2c(=O)c3c(O)c(-c4c(C)cc5c(c4O)C(=O)C4=C(O)C[C@H](OC)[C@@H](O)[C@]4(C)O5)c(C)cc3oc2c1OC | cell growth or viability, resazurin | 72 h | > 82.4 µM
CCCCn1cc(C(=O)O)c(=O)c2cc(F)c3c(nnn3-c3cccc(Cl)c3)c21 | cell growth, SRB | 72 h | 22.5 ± 1.54 µg/mL
CC=C(C)C(=O)OC1C(O)C2OC(COC(=O)CCC(=O)CCCCCCC(CCCCC)OC3OC(C)C(O)C(O)C3O2)C1OC(=O)C=Cc1ccccc1 (stereo not shown) | cytotoxicity | – | 0.0867 µM
CO[C@H]1CC(O)=C2C(=O)c3c(cc(C)c(-c4c(C)cc5c(c4O)C(=O)C4=C(O)C[C@H](OC)[C@@H](O)[C@]4(C)O5)c3O)O[C@@]2(C)[C@@H]1O | cell growth or viability, resazurin | 72 h | 30.5 µM
CC=C(C)C(=O)OC1C(OC(=O)C=Cc2ccccc2)C2COC(=O)CCC(=O)CCCCCCC(CCCCC)OC3OC(C)C(OC(C)=O)C(OC(C)=O)C3OC(O2)C1OC(C)=O (stereo not shown) | cytotoxicity | – | > 10 µM
CCCCn1cc(C(=O)O)c(=O)c2cc(F)c(Nc3cccc(Cl)c3)c([N+](=O)[O-])c21 | cell proliferation, SRB | 72 h | 6 µM and 5.99 µM
C#CCCC[C@@H]1OC(=O)CNC(=O)[C@H]([C@@H](C)CC)NC(=O)[C@@H]2CCCN2C(=O)[C@H]([C@@H](C)CC)OC(=O)[C@H](Cc2ccccc2)NC(=O)[C@H](C(C)C)NC(=O)C1(C)C | cell growth or viability, MTT | 48 h | > 100 µM
CC=C(C)C(=O)OC1C(O)C2OC(COC(=O)CCC(=O)CCCCCCC(CCCCC)OC3OC(C)C(OC(C)=O)C(O)C3O2)C1OC(=O)CCc1ccccc1 (stereo not shown) | cytotoxicity | – | 2.56 µM
O=c1[nH]c(=O)c2cccc(O)c2o1 | cytotoxicity | – | 100 µM
CCCCn1cc(C(=O)O)c(=O)c2cc(F)c(Nc3ccccc3Cl)c([N+](=O)[O-])c21 | cell growth or viability, SRB | – | 63.6 µM

Some of these lines once more:
Compound | test | setting | IC50
O=c1[nH]c(=O)c2cccc(O)c2o1 | cytotoxicity | – | 100 µM
